Experimental data collected from several papers.
Compare with care: the assays were run in different laboratories. ± marks the error that the study gave.
Organism: Plasmodium falciparum

Structure (SMILES)	assay	test system	conditions	EC50
CC(C)C[C@@H](NC(=O)[C@H]1CCCN1C(=O)[C@@H](CC(C)C)NC(=O)[C@@H](Cc1c[nH]c2ccccc12)NC(=O)[C@@H](CCCCN)NC(=O)[C@@H](CCCCN)NC(=O)[C@@H](C)NC(=O)[C@@H](CC(C)C)NC(=O)[C@@H](C)NC(=O)[C@@H](CC(C)C)NC(=O)[C@@H](C)NC(=O)[C@@H](CC(C)C)NC(=O)[C@@H](CCCCN)NC(=O)[C@H](N)CCCCN)C(=O)N[C@H](C)C(=O)N[C@H](CCCCN)C(=O)N[C@H](CCCCN)C(=O)N[C@H](CC(C)C)C(=O)N[C@H](C)C(=O)N[C@H](CC(C)C)C(=O)N[C@H](C)C(=O)N[C@H](CC(C)C)C(=O)N[C@H](C)C(=O)N[C@H](CCCCN)C(=O)N[C@H](CCCCN)C(N)=O	SYBR Green fluorescence	C10	48 h, 37 °C	2360 ± 100 nM
O=C1C2=C(Nc3ccccc3SC2C2CCCCC2)c2ccccc21 (racemic)	growth, hypoxanthine uptake	Dd2 expressing yeast DHOD		> 5000 nM
CCC(C)C1NC(=O)C(Cc2ccccc2)NC(=O)C(CCCCCC(=O)C2CO2)NC(=O)C2CCCCN2C1=O (stereo not shown)	parasite growth, SYBR Green	DD2	drug-resistant strain, blood stage	91 nM
CC(C)C[C@@H](NC(=O)[C@@H](C)NC(=O)[C@@H](CCCCN)NC(=O)[C@@H](CC(C)C)NC(=O)[C@@H](C)NC(=O)[C@H]1CCCN1C(=O)[C@@H](CC(C)C)NC(=O)[C@@H](Cc1c[nH]c2ccccc12)NC(=O)[C@@H](CCCCN)NC(=O)[C@@H](C)NC(=O)[C@@H](CC(C)C)NC(=O)[C@@H](C)NC(=O)[C@@H](Cc1c[nH]cn1)NC(=O)[C@@H](CCCCN)NC(=O)[C@@H](CC(C)C)NC(=O)[C@@H](C)NC(=O)[C@@H](CCCCN)NC(=O)[C@H](N)CCCCN)C(=O)N[C@H](C)C(=O)N[C@H](Cc1c[nH]cn1)C(=O)N[C@H](CCCCN)C(=O)N[C@H](CC(C)C)C(=O)N[C@H](C)C(=O)N[C@H](CCCCN)C(=O)N[C@H](CCCCN)C(N)=O	SYBR Green fluorescence	C10	48 h, 37 °C	3940 ± 330 nM
COc1ccc(C2Sc3ccccc3NC3=C2C(=O)c2ccccc23)cc1 (racemic)	growth, [3H]hypoxanthine incorporation	Dd2		1120 nM
CC(C)C[C@@H](NC(=O)[C@@H](C)NC(=O)[C@@H](CCCCN)NC(=O)[C@H](N)CCCCN)C(=O)N[C@H](C)C(=O)N[C@H](CCCCN)C(=O)N[C@H](C)C(=O)N[C@H](CC(C)C)C(=O)N[C@H](CCCCN)C(=O)N[C@H](Cc1c[nH]cn1)C(=O)N[C@H](Cc1c[nH]c2ccccc12)C(=O)N[C@H](CC(C)C)C(=O)N1CCC[C@@H]1C(=O)N[C@H](C)C(=O)N[C@H](CC(C)C)C(=O)N[C@H](Cc1c[nH]cn1)C(=O)N[C@H](CCCCN)C(=O)N[C@H](CC(C)C)C(=O)N[C@H](C)C(=O)N[C@H](CCCCN)C(=O)N[C@H](C)C(=O)N[C@H](CC(C)C)C(=O)N[C@H](C)C(=O)N[C@H](CCCCN)C(=O)N[C@H](CCCCN)C(N)=O	SYBR Green fluorescence	C10	48 h, 37 °C	960 ± 70 nM
CN(C)CCCOc1ccc(C2Sc3ccccc3NC3=C2C(=O)c2ccccc23)cc1 (racemic)	growth, [3H]hypoxanthine incorporation	3D7		1470 nM
COC(=O)c1[nH]c(C(=O)OC)c2c1-c1c[nH]c3ccc(Cl)c(c13)[C@@]21C=Nc2ccc(Cl)cc21	parasite growth, SYBR Green	DD2	72 h, drug-resistant strain, blood stage	6600 nM
CCC12CCCN(C=CC(=O)OC)CCc3c(n(c4ccccc34)C(O)(C(=O)OC)C1)C2Oc1ccccc1 (stereo not shown)	parasite growth, SYBR Green	DD2	drug-resistant strain, blood stage	2650 nM
N#Cc1ccc(C2Sc3ccccc3NC3=C2C(=O)c2ccccc23)cc1 (racemic)	growth, hypoxanthine uptake	Dd2 expressing yeast DHOD		> 5000 nM
CC(C)C[C@@H](NC(=O)[C@@H](C)NC(=O)[C@@H](CC(C)C)NC(=O)[C@@H](CCCCN)NC(=O)[C@H](N)CCCCN)C(=O)N[C@H](C)C(=O)N[C@H](CC(C)C)C(=O)N[C@H](C)C(=O)N[C@H](CCCCN)C(=O)N[C@H](CCCCN)C(=O)N[C@H](Cc1c[nH]c2ccccc12)C(=O)N[C@H](CC(C)C)C(=O)N[C@H](C)C(=O)N[C@H](CC(C)C)C(=O)N[C@H](C)C(=O)N[C@H](CCCCN)C(=O)N[C@H](CCCCN)C(=O)N[C@H](CC(C)C)C(=O)N[C@H](C)C(=O)N[C@H](CC(C)C)C(=O)N[C@H](C)C(=O)N[C@H](CC(C)C)C(=O)N[C@H](C)C(=O)N[C@H](CCCCN)C(=O)N[C@H](CCCCN)C(N)=O	SYBR Green fluorescence	3D7	48 h, 37 °C	1450 ± 120 nM
CC[C@@]12CCCN(C#N)[C@@H]1c1c(CCn3cc(-c4cccc(Cl)c4)nn3)c3ccccc3n1[C@](O)(C(=O)OC)C2	parasite growth, SYBR Green	DD2	drug-resistant strain, blood stage	8850 nM
COC(=O)c1[nH]c(C(=O)OC)c2c1c1c3cc(Cl)ccc3[nH]c1c1[nH]c3ccc(Cl)cc3c12	parasite growth, SYBR Green	DD2	72 h, drug-resistant strain, blood stage	1000 nM
CC[C@H](C)[C@H](NC(=O)[C@H](CC(C)C)NC(=O)[C@H](CCC(N)=O)NC(=O)[C@@](C)(CC)NC(C)=O)C(=O)NC(C)(C)C(=O)N1CCC[C@H]1C(=O)N[C@](C)(CC)C(=O)N[C@@H](CC(C)C)C(=O)NC(C)(C)C(=O)N1CCC[C@H]1C(=O)N[C@H](CO)CC(C)C	parasite growth	DD2	drug-resistant strain	100 nM
COC(=O)c1[nH]c(C(=O)OC)c2c1-c1c[nH]c3ccc(Cl)c(c13)C21CNc2ccc(Cl)cc21 (racemic)	parasite growth, SYBR Green	DD2	72 h, drug-resistant strain, blood stage	7100 nM
CCC12C=C(C(=O)OC)n3c(c(c4ccccc43)CCN(C=CC(=O)OC)CCC1)C2c1ccc(O)cc1 (stereo not shown)	parasite growth, SYBR Green	DD2	drug-resistant strain, blood stage	1810 nM
CC(C)C[C@@H](NC(=O)[C@@H](C)NC(=O)[C@@H](CC(C)C)NC(=O)[C@@H](CCCCN)NC(=O)[C@H](N)CCCCN)C(=O)N[C@H](Cc1c[nH]cn1)C(=O)N[C@H](C)C(=O)N[C@H](CC(C)C)C(=O)N[C@H](CCCCN)C(=O)N[C@H](CCCCN)C(=O)N[C@H](Cc1c[nH]c2ccccc12)C(=O)N[C@H](CC(C)C)C(=O)N[C@H](Cc1c[nH]cn1)C(=O)N[C@H](C)C(=O)N[C@H](CC(C)C)C(=O)N[C@H](CCCCN)C(=O)N[C@H](CCCCN)C(=O)N[C@H](CC(C)C)C(=O)N[C@H](C)C(=O)N[C@H](Cc1c[nH]cn1)C(=O)N[C@H](CC(C)C)C(=O)N[C@H](C)C(=O)N[C@H](CC(C)C)C(=O)N[C@H](CCCCN)C(=O)N[C@H](CCCCN)C(N)=O	SYBR Green fluorescence	3D7	48 h, 37 °C	1260 ± 140 nM
Nc1ccc(C(=O)/C=C/c2ccccc2F)cc1	parasite growth		48 h, drug-resistant strain, blood stage	> 200000 nM
O=C1C2=C(Nc3ccccc3SC2c2ccc(F)cc2)c2ccccc21 (racemic)	growth, [3H]hypoxanthine incorporation	Dd2		13 nM
OC(CN1CCC2(CC1)CC(O)c1ccc3ccccc3c1O2)c1ccc(F)c(F)c1 (stereo not shown)	parasite growth, SYBR Green	DD2	72 h, drug-resistant strain, blood stage	350 nM
O=C1C2=C(Nc3ccccc3SC2c2ccsc2)c2ccccc21 (racemic)	growth, [3H]hypoxanthine incorporation	Dd2		157 nM
CC(C)C[C@@H](NC(=O)[C@@H](C)NC(=O)[C@@H](CC(C)C)NC(=O)[C@@H](CCCCN)NC(=O)[C@@H](CCCCN)NC(=O)[C@@H](CC(C)C)NC(=O)[C@@H](C)NC(=O)[C@H]1CCCN1C(=O)[C@@H](CC(C)C)NC(=O)[C@@H](Cc1c[nH]c2ccccc12)NC(=O)[C@@H](CCCCN)NC(=O)[C@@H](CCCCN)NC(=O)[C@@H](CC(C)C)NC(=O)[C@@H](C)NC(=O)[C@@H](CC(C)C)NC(=O)[C@@H](CC(C)C)NC(=O)[C@@H](C)NC(=O)[C@@H](CC(C)C)NC(=O)[C@@H](CCCCN)NC(=O)[C@H](N)CCCCN)C(=O)N[C@H](CC(C)C)C(=O)N[C@H](C)C(=O)N[C@H](CC(C)C)C(=O)N[C@H](CCCCN)C(=O)N[C@H](CCCCN)C(N)=O	SYBR Green fluorescence	3D7	48 h, 37 °C	880 ± 80 nM

Repeated from above:
Structure (SMILES)	assay	test system	conditions	EC50
N#Cc1ccc(C2Sc3ccccc3NC3=C2C(=O)c2ccccc23)cc1 (racemic)	growth, hypoxanthine uptake	Dd2 expressing yeast DHOD		> 5000 nM
CC(C)C[C@@H](NC(=O)[C@H]1CCCN1C(=O)[C@@H](CC(C)C)NC(=O)[C@@H](Cc1c[nH]c2ccccc12)NC(=O)[C@@H](CCCCN)NC(=O)[C@@H](CCCCN)NC(=O)[C@@H](C)NC(=O)[C@@H](CC(C)C)NC(=O)[C@@H](C)NC(=O)[C@@H](CC(C)C)NC(=O)[C@@H](C)NC(=O)[C@@H](CC(C)C)NC(=O)[C@@H](CCCCN)NC(=O)[C@H](N)CCCCN)C(=O)N[C@H](C)C(=O)N[C@H](CCCCN)C(=O)N[C@H](CCCCN)C(=O)N[C@H](CC(C)C)C(=O)N[C@H](C)C(=O)N[C@H](CC(C)C)C(=O)N[C@H](C)C(=O)N[C@H](CC(C)C)C(=O)N[C@H](C)C(=O)N[C@H](CCCCN)C(=O)N[C@H](CCCCN)C(N)=O	SYBR Green fluorescence	C10	48 h, 37 °C	2360 ± 100 nM
CC(C)C[C@@H](NC(=O)[C@@H](C)NC(=O)[C@@H](CC(C)C)NC(=O)[C@@H](CCCCN)NC(=O)[C@H](N)CCCCN)C(=O)N[C@H](Cc1c[nH]cn1)C(=O)N[C@H](C)C(=O)N[C@H](CC(C)C)C(=O)N[C@H](CCCCN)C(=O)N[C@H](CCCCN)C(=O)N[C@H](Cc1c[nH]c2ccccc12)C(=O)N[C@H](CC(C)C)C(=O)N[C@H](Cc1c[nH]cn1)C(=O)N[C@H](C)C(=O)N[C@H](CC(C)C)C(=O)N[C@H](CCCCN)C(=O)N[C@H](CCCCN)C(=O)N[C@H](CC(C)C)C(=O)N[C@H](C)C(=O)N[C@H](Cc1c[nH]cn1)C(=O)N[C@H](CC(C)C)C(=O)N[C@H](C)C(=O)N[C@H](CC(C)C)C(=O)N[C@H](CCCCN)C(=O)N[C@H](CCCCN)C(N)=O	SYBR Green fluorescence	3D7	48 h, 37 °C	1260 ± 140 nM
